Assay results of several laboratories.
A part holds a random share of what one study measured. Positions count from the first letter of the parent shown.

Block 1 — observed: binding; method: phage display NGS; form: peptide; relative to: input library
Target: UDP-N-acetylglucosamine--peptide N-acetylglucosaminyltransferase 110 kDa subunit (OGT, Homo sapiens, UniProt O15294)
Construct (O15294 1-1046): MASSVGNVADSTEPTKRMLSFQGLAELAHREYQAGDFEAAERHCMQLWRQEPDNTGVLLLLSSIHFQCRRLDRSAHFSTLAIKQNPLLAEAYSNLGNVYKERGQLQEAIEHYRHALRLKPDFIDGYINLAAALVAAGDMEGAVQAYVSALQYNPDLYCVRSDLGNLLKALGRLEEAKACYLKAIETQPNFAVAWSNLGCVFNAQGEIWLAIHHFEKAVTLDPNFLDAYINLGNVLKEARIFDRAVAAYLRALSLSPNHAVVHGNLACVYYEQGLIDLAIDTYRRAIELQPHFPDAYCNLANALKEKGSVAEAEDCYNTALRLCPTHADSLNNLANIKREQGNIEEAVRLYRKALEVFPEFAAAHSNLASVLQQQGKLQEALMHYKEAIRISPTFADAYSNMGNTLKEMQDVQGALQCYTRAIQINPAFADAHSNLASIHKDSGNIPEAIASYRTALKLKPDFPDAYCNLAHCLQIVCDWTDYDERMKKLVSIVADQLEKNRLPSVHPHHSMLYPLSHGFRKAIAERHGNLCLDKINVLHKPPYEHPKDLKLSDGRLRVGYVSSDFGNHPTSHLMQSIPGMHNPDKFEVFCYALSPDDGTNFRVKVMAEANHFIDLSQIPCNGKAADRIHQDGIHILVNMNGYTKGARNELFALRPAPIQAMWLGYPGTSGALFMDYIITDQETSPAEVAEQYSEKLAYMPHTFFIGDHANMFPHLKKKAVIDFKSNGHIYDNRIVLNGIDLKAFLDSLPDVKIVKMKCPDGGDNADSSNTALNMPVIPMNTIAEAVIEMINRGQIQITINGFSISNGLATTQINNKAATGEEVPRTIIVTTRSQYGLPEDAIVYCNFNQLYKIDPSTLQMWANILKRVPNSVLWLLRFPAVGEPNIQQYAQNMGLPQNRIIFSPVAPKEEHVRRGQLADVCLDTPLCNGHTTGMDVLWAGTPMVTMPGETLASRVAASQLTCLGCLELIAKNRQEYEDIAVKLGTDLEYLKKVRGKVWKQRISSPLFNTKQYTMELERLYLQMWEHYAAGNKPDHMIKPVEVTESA
Molecule | minimum log2 enrichment ratio
HQHKLTPMFKHHGAM | 1.37
HLMHHRLEPDHAHQV | 3.82
NFMPFYPITITAIES | 3.83
HEFHRHHPPIDDLMR | 1.84
KFTELPMYHDARHHQ | 1.86
HRVHTVETHYISHIV | 1.28
TYWHRDHTQTHIPSY | 2.81
TMPRDFTPKYQIMVK | 4.34
TIEDHVHHHAHRLDR | 2.28
YDHQRVAMLHNIHRV | 1.68
YATPWTPQYQIMYN | 4.47
MLETTPHHHQRPYAI | 1.46
HFTREPPTHHHKLQE | 3.13
DFVMPEYIIEYQIRS | 2.38
NHTHMHRHPKDHQRE | 2.32
HIAHQYPHQAKPSGH | 2.09
AGGQYPPKYQIIFPT | 5.83
SYVHSHAMHPYHSQH | 1.75
WTGIHHPWSVPHGRP | 2.89
TYHFPHTHNHVQQHH | 3.9
HEYPATHYHQQRKHY | 1.6
HFVHRQDNGFMKHT | 2.31
GAYSPIYQIFYSRIT | 5.87
HRDVNNHSLHQSPTH | 2.3
GHDSYMPFYQISLFR | 3.07

Block 2 — target: inorganic phosphate, free oxyanion; method: microfluidic competitive inhibition; sample: in vitro, cell-free expressed; tested at: not given; direction: lower = stronger binding
Setting: derived from inhibition constants, unchanged parent 615000 nM
Starting sequence: PafA, mature enzyme, eGFP fusion (Elizabethkingia meningoseptica, UniProt Q9KJX5); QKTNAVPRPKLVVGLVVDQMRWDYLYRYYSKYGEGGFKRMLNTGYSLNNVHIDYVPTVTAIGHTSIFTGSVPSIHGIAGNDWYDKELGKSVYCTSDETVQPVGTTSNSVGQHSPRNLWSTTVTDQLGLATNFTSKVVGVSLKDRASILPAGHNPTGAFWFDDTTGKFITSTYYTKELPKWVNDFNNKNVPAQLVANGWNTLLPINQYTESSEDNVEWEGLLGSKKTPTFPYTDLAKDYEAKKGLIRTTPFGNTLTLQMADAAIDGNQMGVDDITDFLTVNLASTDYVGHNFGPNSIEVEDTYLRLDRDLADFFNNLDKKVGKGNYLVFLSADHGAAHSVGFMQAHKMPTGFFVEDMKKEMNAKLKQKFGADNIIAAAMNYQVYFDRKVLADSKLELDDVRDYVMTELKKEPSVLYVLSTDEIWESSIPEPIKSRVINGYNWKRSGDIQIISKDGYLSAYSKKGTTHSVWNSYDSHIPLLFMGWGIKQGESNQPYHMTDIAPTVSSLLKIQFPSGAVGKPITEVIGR
Variant | phosphate dissociation constant
E97G | 563 µM
T123V | 627 µM
N80G | < 365 µM
L478G | 461 µM
T208G | 639 µM
I296G | 375 µM
N199G | 589 µM
A78V | 499 µM
T228G | 373 µM
F250V | 605 µM
Y380G | 725 µM
S170G | 1040 µM
K462V | 634 µM
V215G | 598 µM
H51V | 595 µM
T98G | 544 µM
Y92G | 2240 µM
K166V | 638 µM
K85G | 645 µM
L326V | 630 µM
A195V | 606 µM
L193V | 557 µM
N199V | 608 µM
D446G | 673 µM
V298A | 714 µM

Block 3 — target: CCNB3, cyclin fold, Cln2 fusion (human); method: yeast growth competition, sequencing; sample: yeast; setting: strong parent motif; relative to: not given; direction: higher = stronger binding; starting sequence: viral docking peptide; KGVKRKLFAEDSS
Variant | normalised enrichment score
K4Y | 0.251
L7N | 0.0766
E10R | 0.806
S12G | 2.66
A9N | 2.54
V3H | 0.617
G2S | 3.47
G2Y | 2.12
G2H | 2.71
K6D | 0.323
L7T | 0.563
F8N | -0.149
K4M | 0.636
K4S | 1.52
A9H | 2.2
V3G | 0.429
F8Q | 0.221
S13A | 2.33
E10C | 1.9
L7W | -0.237
A9Y | 2.75
G2T | 2.54
L7C | 0.176
G2C | 3.29
D11S | 2.52

Block 4 — method: protein-binding microarray; form: double-stranded DNA, one strand shown; sample: in vitro; tested at: 940 nM top; setting: 60-bp whole probe; added: salmon DNA 0.4 mg/ml; relative to: random background probes; direction: higher = stronger binding; constant ends, left off below: GCCTAGCAC … GTCTTGATTCGCTTGACGCTGCTG
Target: Interferon regulatory factor 5, full length, phosphomimetic (IRF5, Homo sapiens, UniProt Q13568-2, residues 1-514, S451D/S453D/S456D/S462D)
Strand | fitted relative affinity [z-score]
TCAACTCTGTGCTTTCCTACTGTGCTA | 0.601
GACGGTTGCGACACTGGGGACGTGCTA | 0.0965
GACGGATTGGGGTTTCGGGACGTGCTA | 2.28
GACGGTATCGGTATCGGGACGTGCTAG | 8.72
TTAGCTCTCAGTTTCGATTAGTGCTAG | 8.52
GACGGACTGCTCCTCCTGACGTGCTAG | -0.206
TTAGGACTGCTTTCCCTTTAGTGCTAG | -0.127
TACTAGAGTAAAACCCTGGCGTGCTAG | -0.524

Excerpt of the above (block 1):
Molecule | minimum log2 enrichment ratio
YATPWTPQYQIMYN | 4.47
MLETTPHHHQRPYAI | 1.46
HFTREPPTHHHKLQE | 3.13
DFVMPEYIIEYQIRS | 2.38
NHTHMHRHPKDHQRE | 2.32
